Measured values gathered from unrelated publications.
Every numbered part comes from another study and shows a few of its results, in no order.

Study 1 — method: RNA Bind-n-Seq; molecule type: RNA; matrix: in vitro; tested at: 365 nM; baseline: no-protein control; direction: higher = stronger binding
Target: RNA binding protein fox-1 homolog 2, RRM domain, GST-SBP tag (RBFOX2, Homo sapiens, UniProt O43251-10, residues 100-194)
Setting: natural RNA segment, single round, ends assumed
All sequences stand within: GGGAGUUCUACAGUCCGACGAUC … UGGAAUUCUCGGGUGCCAA
Target sequence (chain): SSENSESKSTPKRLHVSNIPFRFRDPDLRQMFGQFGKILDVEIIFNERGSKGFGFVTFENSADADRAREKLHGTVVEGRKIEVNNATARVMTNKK
Sequence	RBNS enrichment (R)
UGAAAGGCUUUUGGUGAAAAUGAAGGGAUUUCAUUUGAAAUUACAGCAUGAUGAAUUUUGCAUGGGUGGCCAGCCAGCUAGCCCAUAACUGAUAGAUGCAUUAGAAGUCA	2.1
GUGUAGGUCCUUCCUGAGCCCUUGCUUGUGUUUGGGCCAGCUUAGGACCUGGAGUCCUGGGGAGAGAAGGUGGGGAGGCUUGAGGCCUUUCUCUACUCCUCUCCCUCAGU	0.449
AUGUGGAGGGGAGAUAGAGAUUAACCAGCCGUUUUGUGAUGCCGUGGAUUGAUCAAGUCUUCUGAUCCUUUUUUUUUUCUUUAUAUUUUGGGUUUUGGAGCUUUUAAAAA	0.94
CCCGUGACUUUCCCUUCCUGCCCAGGAAAGUGAGGGUCGGCUGGCCCCACCUUCCCUGUCCUGAUGCCGACAGCUUAGGGAAGGGCAGUGAACUUGCAUAUGGGGCUUAG	0.561
GCAGCACGCUGUGGUGACAGCCCGUCGGCACGGGAUUUGUACCGCUGUGCCCGUGUCAGCUCCUGGGGAGACCUUUUACCUGUGAUCGCUCCAUCCGAGUUUCCUCCUUC	0.331
CAGGCCAGUGUUGAAACUUUCACACCCUGAGUGACUACGGGAGAACUGCCAGCUUCCGCUUCUCUGUGCUCUGUGUCUGCGGUUUACAUAUAGAUCGUCCCCCUGGAAAC	0.386
CUGCCCCAAGGUUGUCAGAGUCAAGUCUGGGAGCAGAAAAGGGGUGAGUUUUCACAUCCCUGCAUCUUCUGCUUUGCAAUGAAGGUUCUGUCGGUGAGGCCUUCUCUAAU	0.55
GUUACAUAAUCAGUAUAUUUGGUUUCUAGAUCACUGUGCUUAUUUUGUUUCAAUCUCUGACUAAAAAUACUUAAAUUUGGUUUGUUAAUUCUUAUUUUAGAAAUUAUAAU	0.507

Study 2 — method: protein-binding microarray; molecule type: double-stranded DNA, one strand shown; matrix: in vitro; tested at: 940 nM top; setting: 60-bp whole probe; added: salmon DNA 0.4 mg/ml; baseline: random background probes; direction: higher = stronger binding; all sequences stand within: GCCTAGCAC … GTCTTGATTCGCTTGACGCTGCTG
Target: Interferon regulatory factor 5, full length, phosphomimetic (IRF5, Homo sapiens, UniProt Q13568-2, residues 1-514, S451D/S453D/S456D/S462D)
Sequence	fitted relative affinity [z-score]
TCATTTCTAAAACTCTTACTGTGCTAG	0.963
GACGAACTGGGGACGGGAGACGTGCTA	0.11
TCAGGAGTGTTTCTCAGACTGTGCTAG	-0.199
GACGAACAGAGACTGGAGACGTGCTAG	-0.492
TTAGAACTGGGGTATAGATTAGTGCTA	0.136
AATCTTTTCACTTTCTTTAAGTGCTAG	2.21
TGAGATTTCAGACTGGATTAGTGCTAG	-0.337
GACGGTCTCGGTTTCCGGACGTGCTAG	4.8
TCAACTTTAGGTTCCCAACTGTGCTAG	-0.00278
GTATATATAATATATATTCATGTGCTA	0.125
TTAGGACTGGGTCTCGGTAAGTGCTAG	0.672
TTATATTTCAGTTTCGATTAGTGCTAG	10
TTAGGTTCCCTTTTCCTTCAGTGCTAG	0.917
TTAGATATCGGGACTGGACTAGTGCTA	0.0584
TCATCTTTCTGTCAGTTACTGTGCTAG	1.7
TTAGGTATCGGACGGGGTTAGTGCTAG	4.14
GAAAGAATCACAACTAGGAAGGTGCTA	0.206
GACGAACTGAGACTGGAGACGTGCTAG	-0.0538
TTCATTTTGTTCATCATTGCGTGCTAG	0.236

Study 3 — method: universal PBM; molecule type: double-stranded DNA, one strand shown; matrix: in vitro; tested at: 600 nM; direction: higher = stronger binding
Target: Sal-like protein 4, full length isoform A (SALL4, Homo sapiens, UniProt Q9UJQ4, residues 1-1053)
UniProt Q9UJQ4, sequence (whole entry, looked up): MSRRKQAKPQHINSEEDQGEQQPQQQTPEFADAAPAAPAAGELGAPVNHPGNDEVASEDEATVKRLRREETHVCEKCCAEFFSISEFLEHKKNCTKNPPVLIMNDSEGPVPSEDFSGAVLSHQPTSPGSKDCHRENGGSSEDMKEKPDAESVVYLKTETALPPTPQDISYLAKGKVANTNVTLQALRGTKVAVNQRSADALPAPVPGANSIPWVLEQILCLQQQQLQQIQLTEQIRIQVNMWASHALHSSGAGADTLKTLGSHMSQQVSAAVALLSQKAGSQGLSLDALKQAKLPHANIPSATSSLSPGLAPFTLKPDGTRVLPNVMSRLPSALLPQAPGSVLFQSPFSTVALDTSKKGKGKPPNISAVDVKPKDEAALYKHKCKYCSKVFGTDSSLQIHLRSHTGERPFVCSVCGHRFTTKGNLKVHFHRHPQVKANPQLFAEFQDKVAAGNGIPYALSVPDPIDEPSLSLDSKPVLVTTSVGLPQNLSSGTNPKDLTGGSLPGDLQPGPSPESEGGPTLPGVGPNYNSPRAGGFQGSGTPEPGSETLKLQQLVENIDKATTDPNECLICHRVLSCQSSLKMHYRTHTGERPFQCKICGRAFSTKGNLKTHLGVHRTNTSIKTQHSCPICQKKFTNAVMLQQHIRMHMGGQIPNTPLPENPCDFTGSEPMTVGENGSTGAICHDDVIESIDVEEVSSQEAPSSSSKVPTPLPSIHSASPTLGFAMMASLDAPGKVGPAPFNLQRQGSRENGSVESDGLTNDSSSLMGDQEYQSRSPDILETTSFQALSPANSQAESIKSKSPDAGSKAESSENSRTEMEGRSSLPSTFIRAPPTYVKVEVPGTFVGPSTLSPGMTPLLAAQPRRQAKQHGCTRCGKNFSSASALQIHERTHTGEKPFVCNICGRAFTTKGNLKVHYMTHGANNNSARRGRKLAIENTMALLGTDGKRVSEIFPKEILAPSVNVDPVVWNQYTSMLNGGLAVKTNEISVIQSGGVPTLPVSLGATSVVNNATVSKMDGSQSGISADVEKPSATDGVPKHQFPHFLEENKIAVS
Setting: 8-mer, flanks averaged, mean of replicates
Sequence	E-score
AATTGAGC	0.0885
CGTATTGC	-0.0364
GACCAAGC	-0.154
ATAGTGGG	0.0224
TGTTTTAA	0.329
AGAGTGTG	-0.0393
CCGTGCGA	-0.168
CTTAAAGA	0.0856
ATGACGGG	-0.0459
CCACGCAA	-0.12
AAATCCCA	0.139
CATACGGC	-0.0674
CTCGCTCC	-0.172
AACCGGGT	-0.309
TGTCCAAA	0.143
AAGACGTG	-0.0806
CACGTATC	-0.0583
CACCCGAC	-0.313
AGTTCCCG	-0.278
ACACTGAG	0.00483
TGCCCAAA	-0.0476
ATCTAGTC	0.0151
ACTCTTTC	-0.0219

Study 4 — method: RNA Bind-n-Seq; molecule type: RNA; matrix: in vitro; tested at: 100 nM; baseline: input RNA pool; direction: higher = stronger binding
Target: RING finger protein unkempt homolog, zinc fingers 1-6, SBP tag (UNK, Homo sapiens, UniProt Q9C0B0, residues 30-357)
UniProt Q9C0B0, sequence (30-357, looked up): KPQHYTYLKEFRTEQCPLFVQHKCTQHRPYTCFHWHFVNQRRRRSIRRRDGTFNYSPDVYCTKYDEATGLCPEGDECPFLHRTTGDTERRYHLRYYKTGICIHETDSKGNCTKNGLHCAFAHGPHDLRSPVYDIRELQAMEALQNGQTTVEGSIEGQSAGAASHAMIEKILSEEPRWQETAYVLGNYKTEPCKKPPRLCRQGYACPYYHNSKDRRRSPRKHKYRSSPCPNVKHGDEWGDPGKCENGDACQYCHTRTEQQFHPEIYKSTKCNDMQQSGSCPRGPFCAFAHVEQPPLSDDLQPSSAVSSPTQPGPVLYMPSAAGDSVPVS
Setting: RNA with constant flanks, vertebrate orthologous sites, ends assumed
All sequences stand within: GGGAGUUCUACAGUCCGACGAUC … CAACAGAGGAUUGAGCAUCA
Sequence	bound/input enrichment [ratio]
CAACUCUAUGCUUGAGGGUUCAGAACUCAAAAAGGUUCGCUCCAACUCCCGAAUAUACCAUCGGUAUUUUUUGCUAGAUGCCGACAUGCAGAGCCUGAGGUGGGAGCCAUCUAAGAAGGA	0.178
ACAUGCGUGAGCUUCUCUACAGUUUAAGACGCUUCCUUUGGUUCCUCACAUAUCUCAUCCUAUUGACUUACCUAUUUUUUAAAAAUAGCAGUAUAAACUCAAAGUGGACUUAACACAGUG	0.78
AAUUGCCUAUAAUAAUGAAAACCAACAGGAAUUUUUUUAUUUCUCAUUUCCCCAUAGGUUUAUUCAGUCCUUUUUCCCAGGCAGAUCAUUCUGAGUGUGCGUGUGUGUGUGCACAUGUUA	0.497
GUGUUGGUACAGAGUGCUCUGUGCCAGUACUCAUCAUCCCUUCUUCAUACAAACUGACCCUAGUUAUAGGAAUUUAAUAUUUUUAAAGUUUUACAUUGCUGUAUAUUCAAAGAUUUGUUU	0.674
AGGGAUGGCCCCCAAUCCCACUUCCGUUUAUUCUGUAAACUACAACCUGUAAAUAACGUUUAGCAUUCCUAUUGUAACAAAAUUAAUUUUUAUGAAAUAAAUUAUAUUUCCUAGUCUAAU	1.42
GAAGAUGGUGGUUGUACAUUAUUUCAUUAGAAAAUAUAAAAAUUCAUUUUGUUUUGAAGCUAGGUGUUAAACUGGAGUAGCUACUAUACCCCCAGAGAAUGGGGCAGUUGUGCCCUUCCC	0.968
UAAGAAUUGGAAGAAUUGUAUAGGAGGCAGUAGUCGAAAAGUAGAAGCAGUUUGGAAGAGUAGUUACAAAUAUCAAGAGCCAGGCGGCUAAAAGGUGGAGCUAUAGGUCAUUGAAGCUCA	0.982
GAUGCAGUGUAUAAAUUUUCCAAGGCAGUGACUUCAGCUUUAUAUACAUUGUUAGUGUUACCAUAAUUUACAUUUAAACUUUUAGAUCGGAUUGUUUGCUGUUGCUGUGUGUGAAGACCA	1.5

Further values, each from its own experiment — organism: Saccharomyces cerevisiae; molecule type: peptide; direction: direction not given
Molecule	observed	method	strain	setting	enrichment score
GAPLKKLFTSTGL	peptide binding	yeast competitive growth sequencing	cyclin E2-Cln2 fusion	library 1	-0.808
PKNAKRNLSSEFAN	mating pheromone growth arrest	pooled competitive growth deep sequencing	no Cln2 overexpression	peptide tiling library	-0.423
LLRRLQDVANDRG	peptide binding	yeast competitive growth sequencing	cyclin F-Cln2 fusion	library 2	-0.603

Excerpt of the above (study 2):
Sequence	fitted relative affinity [z-score]
TTAGGTTCCCTTTTCCTTCAGTGCTAG	0.917
GTATATATAATATATATTCATGTGCTA	0.125
TTAGATATCGGGACTGGACTAGTGCTA	0.0584
TCATTTCTAAAACTCTTACTGTGCTAG	0.963
GACGAACTGAGACTGGAGACGTGCTAG	-0.0538
GACGGTCTCGGTTTCCGGACGTGCTAG	4.8
